Measurements pooled from the literature.
Protocols differ between the studies behind these lines. ± gives the spread as reported.

Compound | test | system | conditions | Cmax
Cn1c(C(F)(F)F)cc(=O)n(-c2cc(Oc3cccnc3OCC(=O)O)c(Cl)cc2F)c1=O | – | Crl:CD(SD) rats, male, plasma | oral diet, 300 ppm in diet, day 1, 90-day toxicity study | 441 ng/mL
CN1CCC[C@H](CN2c3ccccc3Sc3ccccc32)C1.Cl | – | Wistar rat female, skin | oral, 16 mg/kg | 1570 ng/g
CSc1ccccc1C(=O)NCCn1cc(C(=O)NCc2cccc(C)n2)c(=O)c2cc3c(cc21)OC(F)(F)O3 | – | Sprague-Dawley rat, male, plasma | intramuscular, 3 mg/kg of parent drug | 4.95 ± 1.31 ng/mL
CCCCC1=NC2(CCCC2)C(=O)N1Cc1ccc(-c2ccccc2S(=O)(=O)Nc2noc(C)c2C)c(COCC)c1 | – | healthy adult volunteers, plasma | oral, 1600 mg, 14 days repeated dosing, fasted, crushed tablet | 8930 ng/mL
CCc1nc(C(N)=O)c(Nc2ccc(N3CCC(N4CCN(C)CC4)CC3)c(OC)c2)nc1NC1CCOCC1 | – | Japanese patients, plasma | oral, 120 mg, cycle 1 day 28, multiple doses, median | 680 ng/mL
COc1ncc(-c2nc3c(n2C(C)C)[C@H](c2ccc(Cl)cc2)N(c2cc(Cl)cn(C)c2=O)C3=O)c(OC)n1 | LC-MS/MS | human, plasma | oral, 250 mg, cycle 1 day 1, high-dose arm | 2020 ng/mL
Cc1cccc(CNC(=O)c2cn(CCNC(=O)c3ccccc3S)c3cc4c(cc3c2=O)OC(F)(F)O4)n1 | – | Sprague-Dawley rat, male, whole blood | intravenous, 5 mg/kg of parent compound | 4120 ± 506 ng/mL
COCCOc1cnc2ccn([C@H](C)c3nnc4c(F)cc(-c5cnn(C)c5)cn34)c(=O)c2c1 | – | patients, plasma | oral, 25 mg once daily, day 1 | 500 ng/mL

Repeated from above:
Compound | test | system | conditions | Cmax
CCc1nc(C(N)=O)c(Nc2ccc(N3CCC(N4CCN(C)CC4)CC3)c(OC)c2)nc1NC1CCOCC1 | – | Japanese patients, plasma | oral, 120 mg, cycle 1 day 28, multiple doses, median | 680 ng/mL
